Assay results from different studies.
Each numbered part is a random draw from the data of one study; scales do not carry over between parts. Positions count from the first letter of the parent shown.
UniProt Q8NG66, sequence (whole entry, looked up): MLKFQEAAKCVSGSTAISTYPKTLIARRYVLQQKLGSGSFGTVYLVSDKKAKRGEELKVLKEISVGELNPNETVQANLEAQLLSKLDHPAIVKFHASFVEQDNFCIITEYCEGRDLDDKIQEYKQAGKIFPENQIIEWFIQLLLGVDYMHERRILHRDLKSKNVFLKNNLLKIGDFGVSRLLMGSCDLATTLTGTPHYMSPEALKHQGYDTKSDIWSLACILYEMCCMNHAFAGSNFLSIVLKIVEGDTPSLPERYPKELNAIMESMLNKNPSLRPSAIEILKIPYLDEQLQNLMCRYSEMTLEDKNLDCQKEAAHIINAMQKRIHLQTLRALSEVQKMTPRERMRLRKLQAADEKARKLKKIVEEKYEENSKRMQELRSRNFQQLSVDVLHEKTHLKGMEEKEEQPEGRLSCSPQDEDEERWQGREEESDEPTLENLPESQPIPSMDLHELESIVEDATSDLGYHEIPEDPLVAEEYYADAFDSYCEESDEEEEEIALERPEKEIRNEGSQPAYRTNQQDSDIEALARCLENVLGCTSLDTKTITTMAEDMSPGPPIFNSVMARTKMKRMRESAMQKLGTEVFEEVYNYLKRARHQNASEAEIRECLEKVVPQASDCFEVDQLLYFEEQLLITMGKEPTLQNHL

Series 1 — technique: aptamer microarray, sandwich; form: DNA with 2'F-ANA; matrix: in vitro; tested at: 200 nM; with: Cy3 exosite-II aptamer, 400 nM; reading: higher = stronger binding; strand: GGTTGGTGTGGTTGG
Target: Prothrombin, mature alpha-thrombin (F2, Homo sapiens, UniProt P00734)
Notes: whole 15-mer aptamer, many near background
| Modification | mean fluorescence intensity |
| --- | --- |
| 2'F-ANA at 3 8 10 12 14 | 479 a.u. |
| 2'F-ANA at 6 7 8 10 11 13 | 155 a.u. |
| 2'F-ANA at 1 3 4 6 7 8 10 12 13 | 69.2 a.u. |
| 2'F-ANA at 2 4 5 7 8 10 11 12 13 14 15 | 86.9 a.u. |
| 2'F-ANA at 1 2 3 5 6 7 10 12 15 | 53.3 a.u. |
| 2'F-ANA at 1 2 3 5 6 7 12 | 110 a.u. |
| 2'F-ANA at 4 5 7 9 10 11 14 | 46.5 a.u. |
| 2'F-ANA at 1 3 4 5 6 7 9 10 11 12 13 | 53.3 a.u. |

Series 2 — target: CCNB1, cyclin fold, Cln2 fusion (human); technique: yeast growth competition, sequencing; matrix: yeast; notes: weak parent motif; baseline: not given; reading: higher = stronger binding
Starting sequence: SCAPER docking peptide (human); SNARRSLNFGGST
| Change | normalised enrichment score |
| --- | --- |
| SNARRRLNFGGST [S6R] | 1.11 |
| SNARRSLNFGGYT [S12Y] | 0.0112 |
| SNARRSLNFGGSN [T13N] | 1.07 |
| SNARRSLNSGGST [F9S] | -0.152 |
| GNARRSLNFGGST [S1G] | 0.322 |
| SNAFRSLNFGGST [R4F] | -0.474 |
| SNARRSLFFGGST [N8F] | 0.231 |
| SNARRSLNFGGSI [T13I] | 0.411 |

Mixed results
| Molecule | target | assay | test system | setting | scale | endpoint | value |
| --- | --- | --- | --- | --- | --- | --- | --- |
| CCN(CC)CCNC(=O)c1c(C)[nH]c(/C=C2\C(=O)Nc3ccc(Cl)cc32)c1C | Serine/threonine-protein kinase Nek11 (NEK11, Homo sapiens, UniProt Q8NG66) | enzyme activity, inhibitor | – | 0.5 µM | baseline: control | remaining activity | 83.4% |
| PhoQ, residues 284 288 289 292 302 303 SLSLLA | PhoP, residues 12 14 15 18 19 TQCLL (Escherichia coli, UniProt P23836) | Sort-seq, item: YFP reporter | E. coli | PhoQ-PhoP variant library, with: 10 µM Mg2+ | baseline: high Mg2+ state, higher = stronger signaling | fold induction | 4.82 |

For quick reference, copied from above (series 1):
| Modification | mean fluorescence intensity |
| --- | --- |
| 2'F-ANA at 1 2 3 5 6 7 10 12 15 | 53.3 a.u. |
